Measured values from different studies.
A part holds a random share of what one study measured.

Block 1
Target: Histone acetyltransferase KAT6A, winged helix 2, GST fusion (KAT6A, Homo sapiens, UniProt Q92794, residues 85-181)
Technique: protein binding microarray
Form: double-stranded DNA, one strand shown
Matrix: in vitro
Concentration: not given
Notes: 8-mer, flanks averaged, mean of 2 arrays, mostly near background
Relative to: not given
Reading: higher = stronger binding
Construct (chain): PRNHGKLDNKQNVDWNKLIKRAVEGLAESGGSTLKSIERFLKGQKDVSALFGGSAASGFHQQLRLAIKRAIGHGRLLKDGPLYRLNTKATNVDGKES
Sequence | E-score
GGATAACC | -0.0912
ACTGAAAA | 0.0602
CGGCCACA | 0.144
ATAGTCAA | -0.0616
GCGAGCAC | -0.013
CAACCAGA | -0.00409
GATTTAAC | -0.0521
AGAAAGAG | -0.114
GAGATCTA | -0.0865
GATGAAAC | 0.0752

Block 2
Target: POU, POU domain (Salpingoeca helianthica)
Technique: Spec-seq
Form: double-stranded DNA, one strand shown
Matrix: in vitro
Concentration: not given
Notes: whole probe, mean of replicates
Relative to: not given
Reading: lower = stronger binding
All sequences stand within: GAGTCGTCTCGTCAGCAC … CCGTAGAGCACTCAGGTC
Construct (chain): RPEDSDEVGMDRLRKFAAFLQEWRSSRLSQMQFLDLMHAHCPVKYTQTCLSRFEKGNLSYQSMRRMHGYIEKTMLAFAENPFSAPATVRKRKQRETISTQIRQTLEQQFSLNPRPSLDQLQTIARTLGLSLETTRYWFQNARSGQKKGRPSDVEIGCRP
Sequence | relative binding energy [ln ratio]
ATGGCCAT | 1.21
ATGCAGGA | 1.1
ATGCGACG | 1.1
ATAATTAT | -1.5
ATTCGTAT | 1.04
ATGCGCGG | 1.41
ATGCCATA | 1.34
CAGGTAAT | 0.595

Block 3
Target: Interferon regulatory factor 7, full length, phosphomimetic (IRF7, Homo sapiens, UniProt Q92985, residues 1-503, S471D/S472D/S475D/S476D/S477D/S483D/S484D/S487D)
Sequence of UniProt Q92985 (whole entry, unmodified, looked up): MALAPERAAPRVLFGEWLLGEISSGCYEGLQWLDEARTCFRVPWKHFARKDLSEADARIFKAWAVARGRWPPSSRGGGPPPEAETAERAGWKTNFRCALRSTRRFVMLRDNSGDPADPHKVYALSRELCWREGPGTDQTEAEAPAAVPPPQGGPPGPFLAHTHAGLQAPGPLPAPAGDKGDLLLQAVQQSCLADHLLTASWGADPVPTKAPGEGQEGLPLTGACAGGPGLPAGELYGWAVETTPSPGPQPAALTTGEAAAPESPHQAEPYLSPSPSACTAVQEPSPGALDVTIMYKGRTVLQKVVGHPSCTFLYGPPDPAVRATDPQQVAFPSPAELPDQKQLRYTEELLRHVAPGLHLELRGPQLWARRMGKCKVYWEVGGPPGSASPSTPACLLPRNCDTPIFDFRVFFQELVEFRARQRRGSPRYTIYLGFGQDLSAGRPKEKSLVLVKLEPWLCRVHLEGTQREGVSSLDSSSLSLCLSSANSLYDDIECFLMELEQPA
Technique: protein-binding microarray
Form: double-stranded DNA, one strand shown
Matrix: in vitro
Concentration: 2200 nM top
Notes: 60-bp whole probe
Added: salmon DNA 0.4 mg/ml
Relative to: random background probes
Reading: higher = stronger binding
All sequences stand within: GCCTAGCAC … GTCTTGATTCGCTTGACGCTGCTG
Sequence | fitted relative affinity
TCAACCTTGAACTTCGGACTGTGCTAG | 0.377 z-score
TTAGGTATCGACTTTCGCTTAGTGCTA | 4.31 z-score
TCACATTCTGAATTCGAACTGTGCTAG | 2.1 z-score
GACGGACTGGGTCCCGGGACGTGCTAG | -0.911 z-score
TTAGGTCTAGGACTGGGTTAGTGCTAG | -0.548 z-score
TCAGTTCTAAATATCTTACTGTGCTAG | 0.611 z-score
TAAGATATCGGGTTTCGATTAGTGCTA | 2.74 z-score
GACAATATCAGTTTCGAGACGTGCTAG | 3.79 z-score
GACGGACCGGGTTTCGGGACGTGCTAG | 0.77 z-score
TTCGGTCTCCTTATCCTTTAGTGCTAG | 2.2 z-score

Mixed results
Substance | target | test | test system | conditions | scale | quantity | result
PhoQ, residues 284 288 289 292 302 303 SIHLQL | PhoP, residues 12 14 15 18 19 STWGI (Escherichia coli, UniProt P23836) | Sort-seq, measured: YFP reporter | E. coli | PhoQ-PhoP variant library, added: 10 µM Mg2+ | relative to: high Mg2+ state, higher = stronger signaling | fold induction | 7.46

A few entries again (block 1):
Sequence | E-score
AGAAAGAG | -0.114
CAACCAGA | -0.00409
GAGATCTA | -0.0865
CGGCCACA | 0.144
